Published values from different studies.
Numbered parts are unrelated; each lists some results of a single study. Values joined by “and” are separate records of one study, mostly repeats; a detail may differ.
Chain of UniProt O75676 (whole entry, looked up): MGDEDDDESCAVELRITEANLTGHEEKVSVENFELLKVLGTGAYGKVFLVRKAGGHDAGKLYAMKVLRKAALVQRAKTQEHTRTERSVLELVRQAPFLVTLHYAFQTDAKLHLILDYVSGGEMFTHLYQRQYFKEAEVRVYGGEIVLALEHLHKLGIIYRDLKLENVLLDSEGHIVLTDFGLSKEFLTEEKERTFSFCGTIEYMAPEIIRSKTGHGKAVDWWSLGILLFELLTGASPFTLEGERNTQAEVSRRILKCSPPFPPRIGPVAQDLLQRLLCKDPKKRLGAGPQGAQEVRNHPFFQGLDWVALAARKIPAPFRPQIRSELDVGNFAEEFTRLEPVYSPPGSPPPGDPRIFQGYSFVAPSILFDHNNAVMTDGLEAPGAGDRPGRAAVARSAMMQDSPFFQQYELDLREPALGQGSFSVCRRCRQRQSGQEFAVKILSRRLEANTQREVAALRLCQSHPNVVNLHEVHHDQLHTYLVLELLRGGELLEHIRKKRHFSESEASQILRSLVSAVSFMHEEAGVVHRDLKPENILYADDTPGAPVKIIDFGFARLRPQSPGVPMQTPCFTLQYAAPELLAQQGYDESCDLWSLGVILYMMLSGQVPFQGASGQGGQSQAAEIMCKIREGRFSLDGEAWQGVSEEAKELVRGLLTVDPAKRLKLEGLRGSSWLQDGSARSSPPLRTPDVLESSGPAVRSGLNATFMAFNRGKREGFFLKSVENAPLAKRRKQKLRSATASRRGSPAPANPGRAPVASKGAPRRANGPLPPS
Chain of UniProt P53671 (whole entry, looked up): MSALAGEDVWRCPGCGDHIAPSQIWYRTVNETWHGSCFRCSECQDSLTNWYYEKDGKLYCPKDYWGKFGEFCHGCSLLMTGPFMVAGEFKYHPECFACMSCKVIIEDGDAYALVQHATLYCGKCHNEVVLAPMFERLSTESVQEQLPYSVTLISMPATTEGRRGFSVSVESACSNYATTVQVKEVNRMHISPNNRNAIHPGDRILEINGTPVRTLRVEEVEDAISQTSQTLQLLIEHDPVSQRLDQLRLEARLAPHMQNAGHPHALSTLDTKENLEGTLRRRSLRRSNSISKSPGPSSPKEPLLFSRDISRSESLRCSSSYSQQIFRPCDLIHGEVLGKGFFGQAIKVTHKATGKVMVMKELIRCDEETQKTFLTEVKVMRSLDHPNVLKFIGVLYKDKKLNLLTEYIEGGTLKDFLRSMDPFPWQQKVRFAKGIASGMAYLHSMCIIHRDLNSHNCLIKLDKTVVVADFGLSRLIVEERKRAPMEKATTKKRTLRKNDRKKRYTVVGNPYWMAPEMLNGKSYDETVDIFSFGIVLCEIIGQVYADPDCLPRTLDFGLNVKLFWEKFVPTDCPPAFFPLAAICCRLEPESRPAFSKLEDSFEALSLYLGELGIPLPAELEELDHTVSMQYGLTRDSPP
Chain of UniProt Q56UN5 (whole entry, looked up): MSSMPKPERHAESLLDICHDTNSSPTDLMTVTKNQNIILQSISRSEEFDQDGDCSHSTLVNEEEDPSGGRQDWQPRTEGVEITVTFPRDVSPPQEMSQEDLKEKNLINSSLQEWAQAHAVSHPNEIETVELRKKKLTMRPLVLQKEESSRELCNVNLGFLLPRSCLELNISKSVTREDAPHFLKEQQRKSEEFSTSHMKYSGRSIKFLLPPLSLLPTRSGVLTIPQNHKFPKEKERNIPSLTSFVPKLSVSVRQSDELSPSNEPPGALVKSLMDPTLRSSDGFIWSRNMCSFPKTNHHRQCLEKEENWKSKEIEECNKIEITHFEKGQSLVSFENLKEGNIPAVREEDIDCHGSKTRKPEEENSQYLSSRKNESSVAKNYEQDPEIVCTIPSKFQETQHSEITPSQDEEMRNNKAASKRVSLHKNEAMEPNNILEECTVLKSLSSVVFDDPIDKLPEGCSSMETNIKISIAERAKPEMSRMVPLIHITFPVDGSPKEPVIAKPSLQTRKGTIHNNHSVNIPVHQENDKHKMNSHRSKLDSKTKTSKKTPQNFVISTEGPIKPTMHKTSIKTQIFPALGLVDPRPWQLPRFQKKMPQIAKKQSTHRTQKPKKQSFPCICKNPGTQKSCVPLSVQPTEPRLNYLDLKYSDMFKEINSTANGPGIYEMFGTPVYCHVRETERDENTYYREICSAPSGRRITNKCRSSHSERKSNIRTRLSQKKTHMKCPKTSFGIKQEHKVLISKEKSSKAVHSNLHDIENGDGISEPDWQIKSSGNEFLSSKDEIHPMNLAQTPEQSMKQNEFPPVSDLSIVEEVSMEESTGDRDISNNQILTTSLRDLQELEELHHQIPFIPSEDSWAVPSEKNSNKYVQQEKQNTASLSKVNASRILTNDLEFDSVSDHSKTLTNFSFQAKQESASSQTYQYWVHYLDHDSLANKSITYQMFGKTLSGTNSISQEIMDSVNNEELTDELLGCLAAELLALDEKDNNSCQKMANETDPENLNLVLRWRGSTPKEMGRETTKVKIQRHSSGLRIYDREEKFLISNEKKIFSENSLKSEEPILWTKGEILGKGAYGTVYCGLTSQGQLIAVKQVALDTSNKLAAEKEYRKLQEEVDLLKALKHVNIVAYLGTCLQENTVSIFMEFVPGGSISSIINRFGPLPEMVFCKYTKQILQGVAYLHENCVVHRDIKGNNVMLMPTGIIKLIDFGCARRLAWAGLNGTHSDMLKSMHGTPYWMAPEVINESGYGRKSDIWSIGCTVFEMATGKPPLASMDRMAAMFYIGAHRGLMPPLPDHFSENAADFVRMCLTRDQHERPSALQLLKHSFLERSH
Chain of UniProt Q13237 (whole entry, looked up): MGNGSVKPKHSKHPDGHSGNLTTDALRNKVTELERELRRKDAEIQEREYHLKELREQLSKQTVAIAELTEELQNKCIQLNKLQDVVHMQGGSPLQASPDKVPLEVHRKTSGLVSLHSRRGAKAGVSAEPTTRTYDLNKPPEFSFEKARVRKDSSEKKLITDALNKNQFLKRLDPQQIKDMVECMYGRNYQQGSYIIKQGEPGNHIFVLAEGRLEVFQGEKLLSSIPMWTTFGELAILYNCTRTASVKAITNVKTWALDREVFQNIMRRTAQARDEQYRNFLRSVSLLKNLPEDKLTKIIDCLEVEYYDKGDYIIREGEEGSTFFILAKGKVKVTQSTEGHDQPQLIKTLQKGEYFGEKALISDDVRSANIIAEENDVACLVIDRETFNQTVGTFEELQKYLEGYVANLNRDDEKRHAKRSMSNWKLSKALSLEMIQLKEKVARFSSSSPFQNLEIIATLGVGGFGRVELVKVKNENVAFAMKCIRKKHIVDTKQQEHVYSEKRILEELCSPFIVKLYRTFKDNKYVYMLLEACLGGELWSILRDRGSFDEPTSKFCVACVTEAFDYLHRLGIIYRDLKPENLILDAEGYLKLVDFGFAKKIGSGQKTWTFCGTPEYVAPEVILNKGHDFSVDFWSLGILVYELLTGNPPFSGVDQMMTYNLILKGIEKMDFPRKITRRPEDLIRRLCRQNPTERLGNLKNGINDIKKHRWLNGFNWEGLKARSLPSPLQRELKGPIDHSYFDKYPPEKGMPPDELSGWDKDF
Chain of UniProt P42681 (whole entry, looked up): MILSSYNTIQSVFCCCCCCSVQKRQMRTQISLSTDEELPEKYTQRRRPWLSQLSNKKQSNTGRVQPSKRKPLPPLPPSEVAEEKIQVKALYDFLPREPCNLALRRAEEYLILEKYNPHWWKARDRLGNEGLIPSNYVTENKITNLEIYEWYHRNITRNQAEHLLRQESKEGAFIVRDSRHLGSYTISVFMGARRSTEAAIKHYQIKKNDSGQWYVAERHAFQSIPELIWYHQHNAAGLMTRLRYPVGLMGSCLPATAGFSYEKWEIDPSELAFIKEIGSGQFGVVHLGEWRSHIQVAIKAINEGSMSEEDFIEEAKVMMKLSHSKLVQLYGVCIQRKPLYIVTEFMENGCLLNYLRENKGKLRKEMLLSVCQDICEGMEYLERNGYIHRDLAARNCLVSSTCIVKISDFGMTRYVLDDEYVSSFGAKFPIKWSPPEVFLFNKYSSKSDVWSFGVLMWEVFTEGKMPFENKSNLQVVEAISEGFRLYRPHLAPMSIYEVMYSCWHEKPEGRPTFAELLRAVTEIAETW
Chain of UniProt P36896 (whole entry, looked up): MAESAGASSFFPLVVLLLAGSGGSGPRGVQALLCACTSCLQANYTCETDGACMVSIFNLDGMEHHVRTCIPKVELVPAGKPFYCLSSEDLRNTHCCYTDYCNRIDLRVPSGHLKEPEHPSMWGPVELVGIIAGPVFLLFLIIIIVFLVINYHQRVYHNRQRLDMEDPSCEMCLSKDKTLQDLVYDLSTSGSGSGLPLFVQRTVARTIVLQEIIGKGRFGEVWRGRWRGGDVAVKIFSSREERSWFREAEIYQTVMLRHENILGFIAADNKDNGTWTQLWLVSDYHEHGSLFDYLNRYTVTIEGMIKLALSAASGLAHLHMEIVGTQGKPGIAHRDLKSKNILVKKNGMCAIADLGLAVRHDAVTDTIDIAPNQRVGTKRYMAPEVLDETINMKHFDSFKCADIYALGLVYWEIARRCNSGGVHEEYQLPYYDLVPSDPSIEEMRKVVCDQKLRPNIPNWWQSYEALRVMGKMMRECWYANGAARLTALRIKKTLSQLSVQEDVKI
Chain of UniProt Q15759 (whole entry, looked up): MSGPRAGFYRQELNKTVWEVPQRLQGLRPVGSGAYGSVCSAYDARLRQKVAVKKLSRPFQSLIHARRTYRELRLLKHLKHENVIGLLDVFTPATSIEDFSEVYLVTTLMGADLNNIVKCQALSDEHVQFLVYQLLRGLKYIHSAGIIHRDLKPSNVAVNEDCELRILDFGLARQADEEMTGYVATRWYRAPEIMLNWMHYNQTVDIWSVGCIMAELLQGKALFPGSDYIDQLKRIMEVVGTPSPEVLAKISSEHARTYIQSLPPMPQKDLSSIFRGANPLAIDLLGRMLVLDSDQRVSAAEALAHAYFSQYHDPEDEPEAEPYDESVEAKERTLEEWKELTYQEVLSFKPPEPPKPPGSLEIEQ

Series 1
Structure (SMILES): CN(C)C(=O)Cn1cc(-c2nc([C@@](C)(c3ccc(-c4cnc(N)nc4)cc3)C3CC3)no2)cn1
Read-out: cell-free assay
Technique: competition with immobilised ligand
Concentration: 1 µM
target	remaining binding [%]
Mitogen-activated protein kinase 11 (MAPK11, Homo sapiens, UniProt Q15759)	97
MAP kinase-interacting serine/threonine-protein kinase 2 (MKNK2, Homo sapiens, UniProt Q9HBH9)	88
Activin receptor type-1B (ACVR1B, Homo sapiens, UniProt P36896)	89
Receptor-type tyrosine-protein kinase FLT3 (FLT3, Homo sapiens, UniProt P36888, D835V/ITD)	62
LIM domain kinase 2 (LIMK2, Homo sapiens, UniProt P53671)	85
Mitogen-activated protein kinase kinase kinase 19 (MAP3K19, Homo sapiens, UniProt Q56UN5)	61
Serine/threonine-protein kinase 36 (STK36, Homo sapiens, UniProt Q9NRP7)	79
Epidermal growth factor receptor (EGFR, Homo sapiens, UniProt P00533, del747-750/T751S)	100

Series 2
Species: mouse
Matrix: microsomes or S9
Concentration: 2 µM
Time: 0.5 h
SMILES	remaining compound
Cc1c(-c2cnn(C)c2C)nn(-c2ccc(Cl)cc2)c1-c1cnn(C)c1C	0.0553%
CCOc1ccc(/N=c2\cc(C)c(C#N)c3[nH]c4ccccc4n23)cc1	0.306%
Clc1ccc(-c2noc(-c3ccc(Nc4ccc5c(c4)OCCO5)nn3)n2)cc1	43.2%
Cc1cc(N(CC(=O)N2CCC(C(N)=O)CC2)S(C)(=O)=O)ccc1Br	60.7%
CCCc1cc(NC(=O)c2ccccc2-n2ccnn2)n[nH]1	> 100%
Cc1nc(O)cc(COCc2ccccc2)c1C#N	6.57%
CC(C)(C)OC(=O)C1C(=O)CC(C)(O)C(C(=O)OC(C)(C)C)C1c1cccnc1 (stereo not drawn)	19.7%
CCc1nn(CC(=O)N2CCC(N3CCCCC3)CC2)c(=O)c2cc3sccc3n12	76.7%
Cn1cc(-c2cccc(CNc3nnc(C(C)(C)C)o3)c2)cn1	7.78%
Cc1ccnc(COc2cc(C)nc3onc(C)c23)n1	7.21%

Series 3
Structure (SMILES): N#C/C(=C\c1ccc(O)c(O)c1)C(=O)NCc1ccccc1
Read-out: enzyme activity
Action: inhibitor
Concentration: 0.5 µM
Baseline: control
target	remaining activity
Tyrosine-protein kinase TXK (TXK, Homo sapiens, UniProt P42681)	104%
Dual specificity mitogen-activated protein kinase kinase 1 (MAP2K1, Homo sapiens, UniProt Q02750)	94%
Cyclin-dependent kinase 1, with cyclin A (CDK1, Homo sapiens, UniProt P06493)	92.8%
Dual specificity protein kinase CLK3 (CLK3, Homo sapiens, UniProt P49761)	125%
MAP/microtubule affinity-regulating kinase 4 (MARK4, Homo sapiens, UniProt Q96L34)	104%
Cyclin-dependent kinase 9, with cyclin K (CDK9, Homo sapiens, UniProt P50750)	102%
Hepatocyte growth factor receptor (MET, Homo sapiens, UniProt P08581)	98.1%
Serine/threonine-protein kinase PAK 3 (PAK3, Homo sapiens, UniProt O75914)	101%
Serine/threonine-protein kinase MARK2 (MARK2, Homo sapiens, UniProt Q7KZI7)	88.2%
Serine/threonine-protein kinase PLK3 (PLK3, Homo sapiens, UniProt Q9H4B4)	96.1%
Calcium/calmodulin-dependent protein kinase type 1B (PNCK, Homo sapiens, UniProt Q6P2M8)	97.1%
Serine/threonine-protein kinase Nek3 (NEK3, Homo sapiens, UniProt P51956)	95.1%
Ribosomal protein S6 kinase alpha-4 (RPS6KA4, Homo sapiens, UniProt O75676)	94.2%
cGMP-dependent protein kinase 2 (PRKG2, Homo sapiens, UniProt Q13237)	98.6%

Series 4
Cell line: mouse MPNST tumor cells
Technique: high-content nuclear imaging
Refers to: cell number
Concentration: 10 µM
Time: 12 h
Setting: mean of 2 replicates
Baseline: plate mean
Direction: higher = more cells
SMILES	nuclei count
NCc1ccc(S(N)(=O)=O)cc1	2.1 z-score
N=C(N)NCc1cccc(I)c1	1.48 z-score
O=C(O)CCNc1cc(N2CCc3ccccc3CC2)nc(-c2ccccn2)n1	0.452 z-score and -5.67 z-score
O=C(O)P(=O)(O)O	1.75 z-score
O=C(Nc1cc(C(F)(F)F)cc(C(F)(F)F)c1)c1cnc(Cl)nc1C(F)(F)F	-0.717 z-score
NS(=O)(=O)c1cc2c(cc1Cl)NCNS2(=O)=O	-0.736 z-score
CCN(CC)C(=O)/C(C#N)=C/c1cc(O)c(O)c([N+](=O)[O-])c1	2.16 z-score and 2.27 z-score

Some of these lines once more (series 2):
SMILES	remaining compound
Cc1c(-c2cnn(C)c2C)nn(-c2ccc(Cl)cc2)c1-c1cnn(C)c1C	0.0553%
CCOc1ccc(/N=c2\cc(C)c(C#N)c3[nH]c4ccccc4n23)cc1	0.306%
Clc1ccc(-c2noc(-c3ccc(Nc4ccc5c(c4)OCCO5)nn3)n2)cc1	43.2%
Cc1cc(N(CC(=O)N2CCC(C(N)=O)CC2)S(C)(=O)=O)ccc1Br	60.7%
